# Experimental data of several laboratories.
# Each numbered part is a random draw from the data of one study; scales do not carry over between parts.
# Chain of UniProt P41143 (whole entry, looked up): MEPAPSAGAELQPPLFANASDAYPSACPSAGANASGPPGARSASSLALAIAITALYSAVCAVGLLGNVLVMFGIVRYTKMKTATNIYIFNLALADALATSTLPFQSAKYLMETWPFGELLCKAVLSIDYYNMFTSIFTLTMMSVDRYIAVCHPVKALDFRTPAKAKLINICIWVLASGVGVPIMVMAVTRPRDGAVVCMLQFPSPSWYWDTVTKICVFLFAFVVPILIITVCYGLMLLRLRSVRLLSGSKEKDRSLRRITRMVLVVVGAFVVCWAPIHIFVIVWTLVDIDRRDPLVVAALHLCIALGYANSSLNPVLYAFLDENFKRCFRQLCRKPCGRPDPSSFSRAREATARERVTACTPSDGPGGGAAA
# Chain of UniProt P20309 (whole entry, looked up): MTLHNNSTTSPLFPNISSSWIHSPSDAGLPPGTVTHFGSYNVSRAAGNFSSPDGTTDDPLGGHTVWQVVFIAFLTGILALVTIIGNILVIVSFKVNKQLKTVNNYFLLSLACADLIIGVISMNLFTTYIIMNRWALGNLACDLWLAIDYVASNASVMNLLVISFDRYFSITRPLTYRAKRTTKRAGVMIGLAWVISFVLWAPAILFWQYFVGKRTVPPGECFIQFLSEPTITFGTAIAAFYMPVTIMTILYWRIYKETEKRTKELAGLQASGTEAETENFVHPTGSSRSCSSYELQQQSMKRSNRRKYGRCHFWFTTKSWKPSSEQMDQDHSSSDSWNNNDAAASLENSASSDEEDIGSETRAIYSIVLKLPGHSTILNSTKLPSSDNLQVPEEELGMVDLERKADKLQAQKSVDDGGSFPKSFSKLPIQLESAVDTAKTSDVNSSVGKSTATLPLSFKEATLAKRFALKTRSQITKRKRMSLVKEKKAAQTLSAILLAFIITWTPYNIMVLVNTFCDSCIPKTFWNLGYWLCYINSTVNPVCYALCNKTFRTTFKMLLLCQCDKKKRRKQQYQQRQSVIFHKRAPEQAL
# Chain of UniProt P35372 (whole entry, looked up): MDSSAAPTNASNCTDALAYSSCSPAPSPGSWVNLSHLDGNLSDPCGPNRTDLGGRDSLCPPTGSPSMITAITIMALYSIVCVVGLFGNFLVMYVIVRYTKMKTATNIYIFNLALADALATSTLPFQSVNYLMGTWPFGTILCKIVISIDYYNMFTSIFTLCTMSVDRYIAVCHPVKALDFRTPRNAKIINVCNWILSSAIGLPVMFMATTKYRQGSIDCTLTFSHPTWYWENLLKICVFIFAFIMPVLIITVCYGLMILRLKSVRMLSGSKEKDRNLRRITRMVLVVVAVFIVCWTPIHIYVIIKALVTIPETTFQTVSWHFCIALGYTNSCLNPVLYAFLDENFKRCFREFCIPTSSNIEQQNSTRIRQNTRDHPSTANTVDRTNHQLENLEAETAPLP
# Chain of UniProt P11229 (whole entry, looked up): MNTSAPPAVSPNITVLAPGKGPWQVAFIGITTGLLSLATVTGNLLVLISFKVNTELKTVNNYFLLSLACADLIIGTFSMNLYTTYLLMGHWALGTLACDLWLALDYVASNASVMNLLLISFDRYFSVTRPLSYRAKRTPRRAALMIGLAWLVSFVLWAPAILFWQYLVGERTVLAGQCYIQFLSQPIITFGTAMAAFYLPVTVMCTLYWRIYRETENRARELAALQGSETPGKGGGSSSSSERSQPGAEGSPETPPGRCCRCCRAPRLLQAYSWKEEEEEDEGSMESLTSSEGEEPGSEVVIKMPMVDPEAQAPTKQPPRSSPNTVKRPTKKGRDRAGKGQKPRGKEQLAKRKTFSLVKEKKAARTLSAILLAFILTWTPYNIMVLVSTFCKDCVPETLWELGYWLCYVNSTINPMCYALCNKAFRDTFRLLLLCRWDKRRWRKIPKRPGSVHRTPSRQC

# Study 1
# SMILES: O=C(NNS(=O)(=O)c1ccccc1F)c1cc(F)cc(-c2ccccn2)c1
# Effect on: cell-free assay
# Tested at: 10 µM
target,inhibition [%]
"Mu-type opioid receptor (OPRM1, Homo sapiens, UniProt P35372)",3.45
"Delta-type opioid receptor (OPRD1, Homo sapiens, UniProt P41143)",20.6
"Muscarinic acetylcholine receptor M3 (CHRM3, Homo sapiens, UniProt P20309)",-17.6
"Muscarinic acetylcholine receptor M1 (CHRM1, Homo sapiens, UniProt P11229)",0.14

# Study 2
# Target: Beta-1 adrenergic receptor (ADRB1, Homo sapiens, UniProt P08588)
# Chain of UniProt P08588 (whole entry, looked up): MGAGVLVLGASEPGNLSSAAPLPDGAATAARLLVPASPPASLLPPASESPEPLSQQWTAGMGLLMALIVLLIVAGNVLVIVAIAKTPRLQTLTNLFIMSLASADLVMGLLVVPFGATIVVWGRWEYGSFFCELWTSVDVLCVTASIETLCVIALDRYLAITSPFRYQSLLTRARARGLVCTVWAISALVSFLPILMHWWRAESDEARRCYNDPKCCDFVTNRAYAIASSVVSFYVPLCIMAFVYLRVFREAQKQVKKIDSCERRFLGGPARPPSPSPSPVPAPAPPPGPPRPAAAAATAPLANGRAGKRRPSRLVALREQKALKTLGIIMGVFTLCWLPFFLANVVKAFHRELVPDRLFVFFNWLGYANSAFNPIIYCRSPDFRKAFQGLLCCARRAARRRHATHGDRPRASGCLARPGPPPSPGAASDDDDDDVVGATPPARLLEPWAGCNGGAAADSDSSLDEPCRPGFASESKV
# Mode: antagonist
Structure (SMILES),IC50 [µM]
CNc1ccc2c(CCN)cc(=O)oc2c1,31.6
Fc1cc(C2=CC3CCC(C2)N3Cc2ccc3ccccc3n2)ccc1-c1ccccc1 (stereo not drawn),≥ 100
Nc1ncnc2c1ncn2[C@@H]1O[C@@H]2COP(O)(=S)O[C@H]2[C@H]1O (stereo partly drawn),≥ 100
C[C@H](Cc1ccc2c(c1)OC(C(=O)O)(C(=O)O)O2)NC[C@H](O)c1cccc(Cl)c1,≥ 100
O=C1C=CC(=O)c2c1ccc1c2ccc2ccccc21,≥ 100

# Mixed results
Structure (SMILES),system,setting,measurement,result
C=C[C@H]1C[N@+]2(Cc3cc(C(C)(C)C)c(OC)c(C(C)(C)C)c3)CC[C@H]1C[C@H]2[C@H](O)c1ccnc2ccccc12,"mouse, microsomes or S9","2 µM, 0.5 h",remaining compound,42.2%
CC(=O)N[C@@H](Cc1c[nH]c2ccccc12)C(=O)N[C@@H](CCC(=O)C=[N+]=[N-])C(=O)OC(C)C,"C57BL/6 CES1-/- mouse, blood","intravenous, 1 mg/kg equivalent",white blood cell count,5.82
Cc1nc(NCCc2c[nH]cn2)cc([C@H]2C[C@@H](O)C2)n1,"mouse, microsomes or S9","2 µM, 0.5 h",remaining compound,> 99%

# A few entries again (study 1):
target,inhibition [%]
"Delta-type opioid receptor (OPRD1, Homo sapiens, UniProt P41143)",20.6
"Muscarinic acetylcholine receptor M3 (CHRM3, Homo sapiens, UniProt P20309)",-17.6
